{"data": "Results from different studies", "ESR2": "Estrogen receptor beta (ESR2, Homo sapiens, UniProt Q92731)", "note": "“And” joins repeats or separate records; there may be more than shown. ± gives the spread as reported.", "UniProt Q16774, sequence (whole entry, unmodified, looked up)": "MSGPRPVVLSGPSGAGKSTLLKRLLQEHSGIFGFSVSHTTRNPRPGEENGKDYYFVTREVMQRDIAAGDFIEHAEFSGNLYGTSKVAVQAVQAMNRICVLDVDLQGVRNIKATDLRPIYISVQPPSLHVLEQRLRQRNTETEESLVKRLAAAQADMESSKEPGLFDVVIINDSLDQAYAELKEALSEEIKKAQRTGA", "UniProt P51575, sequence (whole entry, unmodified, looked up)": "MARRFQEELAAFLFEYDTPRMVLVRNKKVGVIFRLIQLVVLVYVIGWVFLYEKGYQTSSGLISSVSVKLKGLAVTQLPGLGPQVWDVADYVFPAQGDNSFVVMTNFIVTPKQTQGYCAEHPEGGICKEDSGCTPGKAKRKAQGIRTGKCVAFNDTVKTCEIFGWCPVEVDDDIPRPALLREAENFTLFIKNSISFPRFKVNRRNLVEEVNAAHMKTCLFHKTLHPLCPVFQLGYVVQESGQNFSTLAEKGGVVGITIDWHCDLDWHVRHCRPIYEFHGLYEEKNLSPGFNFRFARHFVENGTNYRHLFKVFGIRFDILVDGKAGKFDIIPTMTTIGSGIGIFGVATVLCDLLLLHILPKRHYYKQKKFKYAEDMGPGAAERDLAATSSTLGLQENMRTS", "UniProt Q92731, sequence (whole entry, looked up)": "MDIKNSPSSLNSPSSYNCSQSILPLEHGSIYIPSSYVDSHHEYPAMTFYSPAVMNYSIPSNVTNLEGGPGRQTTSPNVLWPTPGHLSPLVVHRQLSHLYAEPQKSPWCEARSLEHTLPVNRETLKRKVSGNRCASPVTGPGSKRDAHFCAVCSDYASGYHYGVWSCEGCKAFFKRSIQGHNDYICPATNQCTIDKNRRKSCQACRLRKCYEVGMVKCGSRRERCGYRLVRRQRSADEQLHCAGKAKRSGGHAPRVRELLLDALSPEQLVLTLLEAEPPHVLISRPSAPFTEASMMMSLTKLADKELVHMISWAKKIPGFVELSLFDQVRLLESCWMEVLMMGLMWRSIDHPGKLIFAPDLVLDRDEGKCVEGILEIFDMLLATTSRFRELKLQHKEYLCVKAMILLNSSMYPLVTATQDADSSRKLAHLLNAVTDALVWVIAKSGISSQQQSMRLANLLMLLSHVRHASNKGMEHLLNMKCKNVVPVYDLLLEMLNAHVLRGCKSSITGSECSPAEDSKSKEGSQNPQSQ"}
{"Structure (SMILES)": "O=C(O)CNC(=O)Cc1ccccc1", "system": "ventricular cardiomyocytes, C57BL/6 mouse", "conditions": "dose not given, 0.76 s", "measurement": "sarcomere length", "value": "1.72 µm"}
{"Structure (SMILES)": "COc1ccc(Nc2cnnc3cc(-c4cnc(N5CCCN(C)CC5)nc4)ccc23)cc1Cl", "tested on": "Schistosoma mansoni", "system": "adult worms", "conditions": "10 µM, 24 h", "scale": "direction not given", "measurement": "phenotypic severity score", "value": 0}
{"Structure (SMILES)": "CC1=C(Cn2cc(CN(Cc3ccccc3)Cc3ccccc3)nn2)C(=O)c2ccccc2C1=O", "tested on": "Schistosoma mansoni", "system": "adult worms", "conditions": "25 µM, 24 h", "measurement": "killing", "value": "45.2%"}
{"Structure (SMILES)": "O=c1c(-c2ccc(O)cc2)coc2c([C@@H]3O[C@H](CO)[C@@H](O)[C@H](O)[C@H]3O)c(O)ccc12", "tested on": "Nedd8-cullin1 interaction", "test": "neddylation, AlphaScreen", "conditions": "100 µM", "measurement": "inhibition", "value": "14.3%"}
{"Structure (SMILES)": "COc1ccc(Nc2cnnc3ccc(-c4cnc(N5CCN(C)CC5)nc4)cc23)cc1", "tested on": "Schistosoma mansoni", "system": "adult worms", "conditions": "10 µM, 24 h", "scale": "direction not given", "measurement": "phenotypic severity score", "value": 1}
{"Structure (SMILES)": "Cc1nc(C)c(C)nc1C.O=P(O)(O)O", "tested on": "Nedd8-cullin1 interaction", "test": "neddylation, AlphaScreen", "conditions": "100 µM", "measurement": "inhibition", "value": "44%"}
{"Structure (SMILES)": "CC(C)C[C@H](NC(=O)C[C@H](O)[C@H](CC(C)C)NC(=O)[C@H](Cc1c[nH]cn1)NC(=O)CNC(=O)[C@@H](NC(=O)[C@H](C)NC(=O)[C@H](Cc1c[nH]c2ccccc12)NC(=O)[C@H](CCC(N)=O)NC(=O)[C@@H](Cc1ccccc1)NC(=O)COCCOCCNC(=O)CCC(C(=O)O)N1CCN(CC(=O)O)CCN(CC(=O)O)CCN(CC(=O)O)CC1)C(C)C)C(N)=O (stereo partly shown) [lutetium-177 labelled]", "system": "female BALB/c nu/nu mice, stomach", "conditions": "intravenous, 50 pmol, 1 h", "measurement": "tissue uptake", "value": "2 ± 1 %ID/g"}
{"Structure (SMILES)": "CC1=C(Cn2cc(CN)nn2)C(=O)c2ccccc2C1=O", "tested on": "Schistosoma mansoni", "system": "adult worms", "conditions": "10 µM, 24 h", "measurement": "killing", "value": "37%"}
{"Structure (SMILES)": "CC(C)C[C@H](NC(=O)C[C@H](O)[C@H](CC(C)C)NC(=O)[C@H](Cc1c[nH]cn1)NC(=O)CNC(=O)[C@@H](NC(=O)[C@H](C)NC(=O)[C@H](Cc1c[nH]c2ccccc12)NC(=O)[C@H](CCC(N)=O)NC(=O)[C@@H](Cc1ccccc1)NC(=O)COCCOCCNC(=O)CCC(C(=O)O)N1CCN(CC(=O)O)CCN(CC(=O)O)CC1)C(C)C)C(N)=O (stereo partly shown) [lutetium-177 labelled]", "system": "female BALB/c nu/nu mice, muscle", "conditions": "intravenous, 50 pmol, 1 h", "measurement": "tissue uptake", "value": "0.1 ± 0.04 %ID/g"}
{"Structure (SMILES)": "CC(C)NCC(O)c1ccc(NS(C)(=O)=O)cc1 (stereo not shown)", "tested on": "Nedd8-cullin1 interaction", "test": "neddylation, AlphaScreen", "conditions": "100 µM", "measurement": "inhibition", "value": "32.2%"}
{"Structure (SMILES)": "Cc1ccc(Nc2cnnc3ccc(-c4ccc(S(=O)(=O)N5CCN(C)CC5)cc4)cc23)cn1", "tested on": "Schistosoma mansoni", "system": "adult worms", "conditions": "10 µM, 1 h", "scale": "direction not given", "measurement": "phenotypic severity score", "value": 0}
{"Structure (SMILES)": "N#Cc1ccc2c(c1)[C@H]1CCCN(C(=O)c3ccc4[nH]cnc4c3)[C@H]1C2", "system": "human males", "conditions": "40 mg, end of trial", "measurement": "DHEA-S level", "value": "4.1 µmol/L"}
{"Structure (SMILES)": "COc1cc2c(cc1OC)CC(=O)N(CCCN(C)C[C@H]1Cc3cc(OC)c(OC)cc31)CC2.Cl", "tested on": "Nedd8-cullin1 interaction", "test": "neddylation, AlphaScreen", "conditions": "100 µM", "measurement": "inhibition", "value": "-12.2%"}
{"Structure (SMILES)": "CC1=C(Cc2cn(CCN3CCC(=O)CC3)nn2)C(=O)c2ccccc2C1=O", "tested on": "Schistosoma mansoni", "system": "adult worms", "conditions": "10 µM, 48 h", "measurement": "killing", "value": "47.2%"}
{"Structure (SMILES)": "C[C@H](Oc1ccc(Br)cc1-c1ccon1)C(=O)O", "test": "first response peak", "system": "human, tibialis anterior muscle", "conditions": "100 mg, 15 Hz, single ascending dose", "measurement": "difference from placebo", "value": "4.18%"}
{"Structure (SMILES)": "CN1CCN(c2ccc(-c3ccc4nncc(Nc5cnccn5)c4c3)cc2)CC1", "tested on": "Schistosoma mansoni", "system": "adult worms", "conditions": "10 µM, 48 h", "scale": "direction not given", "measurement": "phenotypic severity score", "value": 1}
{"Structure (SMILES)": "CC(C)(Oc1ccc(CCNC(=O)c2ccc(Cl)cc2)cc1)C(=O)O", "tested on": "Nedd8-cullin1 interaction", "test": "neddylation, AlphaScreen", "conditions": "100 µM", "measurement": "inhibition", "value": "77.3%"}
{"Structure (SMILES)": "COc1ccc(Nc2cnnc3ccc(-c4cnc(N5CCN(C)CC5)nc4)cc23)cc1Cl", "tested on": "Schistosoma mansoni", "system": "adult worms", "conditions": "10 µM, 48 h", "scale": "direction not given", "measurement": "phenotypic severity score", "value": 0}
{"Structure (SMILES)": "COc1ccc(-c2oc3c(CC=C(C)C)c(OC4OC(CO)C(O)C(O)C4O)cc(O)c3c(=O)c2OC2OC(C)C(O)C(O)C2OC2OC(CO)C(O)C(O)C2O)cc1 (stereo not shown)", "tested on": "ESR2", "test": "array formation, agonist", "system": "GFP-ERβ PRL-HeLa", "conditions": "1 h", "measurement": "EC50", "value": "1.86 µM"}
{"Structure (SMILES)": "Nc1nc2c(ncn2[C@@H]2O[C@H](COP(=O)(O)O)[C@@H](O)[C@H]2O)c(=O)[nH]1", "tested on": "GUK1 (Homo sapiens, UniProt Q16774, S37A)", "test": "enzyme activity, NADH-coupled", "conditions": "1000 µM", "measurement": "reaction rate", "value": "2.25 s⁻¹ and 2.3 s⁻¹ and 3.75 s⁻¹"}
{"Structure (SMILES)": "CC(C)NCC(O)COc1ccc(COCCOC(C)C)cc1 (stereo not shown)", "tested on": "Nedd8-cullin1 interaction", "test": "neddylation, AlphaScreen", "conditions": "100 µM", "measurement": "inhibition", "value": "2.3%"}
{"Structure (SMILES)": "CN1CCN(S(=O)(=O)c2ccc(-c3ccc4c(Nc5ncccn5)cnnc4c3)cc2)CC1", "tested on": "Schistosoma mansoni", "system": "adult worms", "conditions": "10 µM, 5 h", "scale": "direction not given", "measurement": "phenotypic severity score", "value": 0}
{"Structure (SMILES)": "CCCCC(=O)N(Cc1ccc(-c2ccccc2-c2nnn[nH]2)cc1)[C@H](C(=O)O)C(C)C", "tested on": "Nedd8-cullin1 interaction", "test": "neddylation, AlphaScreen", "conditions": "100 µM", "measurement": "inhibition", "value": "83.4%"}
{"Structure (SMILES)": "NC(=O)c1cnc2[nH]ccc2c1N[C@@H]1[C@@H]2CC3C[C@H]1C[C@@](O)(C3)C2", "test": "total naive T cells, flow cytometry", "system": "Caucasian humans, peripheral blood", "conditions": "200 mg single dose", "scale": "relative to: baseline", "measurement": "percent change", "value": "-2.88%"}
{"Structure (SMILES)": "CC1=C(Cn2cc(CBr)nn2)C(=O)c2ccccc2C1=O", "tested on": "Schistosoma mansoni", "system": "adult worms", "conditions": "10 µM, 24 h", "measurement": "killing", "value": "38.4%"}
{"Structure (SMILES)": "C[C@@H](O)[C@@H](CO)NC(=O)[C@@H](CCCNC(=N)N)NC(=O)[C@@H]1CCCN1C(=O)[C@@H]1CSSC[C@H](NC(=O)[C@H](Cc2ccccc2)NC(=O)CN2CCN(CC(=O)O)CCN(CC(=O)O)CCN(CC(=O)O)CC2)C(=O)N[C@@H](Cc2ccc(O)cc2)C(=O)N[C@@H](Cc2ccccc2)C(=O)N[C@@H](CCC(N)=O)C(=O)N[C@@H](CC(N)=O)C(=O)N1 [gallium-68 labelled]", "system": "normal saline", "conditions": "3 h, room temperature", "measurement": "radiochemical purity", "value": "> 99%"}
{"Structure (SMILES)": "COc1ccc(-c2coc3cc(O)ccc3c2=O)cc1O", "tested on": "ESR2", "test": "array formation, agonist", "system": "GFP-ERβ PRL-HeLa", "conditions": "1 h", "measurement": "EC50", "value": "1.75 µM"}
{"Structure (SMILES)": "OC(CCN1CCCCC1)(c1ccccc1)C1CC2C=CC1C2 (stereo not shown)", "test": "resting-state EEG", "system": "healthy elderly humans", "conditions": "oral, 2 mg, eyes open, LS mean", "scale": "relative to: baseline", "measurement": "change, Alpha EEG power, in O2-Pz", "value": "13.8%"}
{"Structure (SMILES)": "CC1=C(Cn2cc(CO)nn2)C(=O)c2ccccc2C1=O", "tested on": "Schistosoma mansoni", "system": "adult worms", "conditions": "25 µM, 24 h", "measurement": "killing", "value": "44%"}
{"Structure (SMILES)": "COc1ccc(Nc2cnnc3ccc(-c4ccc(N5CCN(C)CC5)cc4)cc23)cc1", "tested on": "Schistosoma mansoni", "system": "adult worms", "conditions": "10 µM, 5 h", "scale": "direction not given", "measurement": "phenotypic severity score", "value": 2}
{"Structure (SMILES)": "Nc1ncnc2c1ncn2[C@@H]1O[C@H](COP(=O)(O)CP(=O)(O)OP(=O)(O)O)[C@@H](O)[C@H]1O", "tested on": "P2X purinoceptor 1 (P2RX1, Homo sapiens, UniProt P51575, S286A)", "test": "calcium influx", "conditions": "100 nM", "scale": "relative to: ionomycin response", "measurement": "calcium influx", "value": "43.6% and 26.3% and 37.5% and 40.2%"}
{"Structure (SMILES)": "CC1=C(Cc2cn(Cc3ccccc3)nn2)C(=O)c2ccccc2C1=O", "tested on": "Schistosoma mansoni", "system": "adult worms", "conditions": "25 µM, 72 h", "measurement": "killing", "value": "58.8%"}
{"Structure (SMILES)": "CC(C)n1c(/C=C/C(O)CC(O)CC(=O)O)c(-c2ccc(F)cc2)c2ccccc21 (stereo not shown)", "tested on": "Nedd8-cullin1 interaction", "test": "neddylation, AlphaScreen", "conditions": "100 µM", "measurement": "inhibition", "value": "21.4%"}
{"Structure (SMILES)": "CC1=C(Cn2ccnn2)C(=O)c2ccccc2C1=O", "tested on": "Schistosoma mansoni", "system": "adult worms", "conditions": "10 µM, 24 h", "measurement": "killing", "value": "41.3%"}
{"Structure (SMILES)": "CC(C)NCC(O)c1ccc(O)c(O)c1 (stereo not shown)", "system": "ventricular cardiomyocytes, C57BL/6 mouse", "conditions": "dose not given, 0.3 s", "measurement": "sarcomere length", "value": "1.72 µm"}
{"Structure (SMILES)": "CC1=C(Cc2cn(CCO)nn2)C(=O)c2ccccc2C1=O", "tested on": "Schistosoma mansoni", "system": "NTS", "scale": "relative to: L6 CC50 over IC50", "measurement": "selectivity index", "value": 12.2}
{"Structure (SMILES)": "COc1ccc(Nc2cnnc3cc(-c4cnc(N5CCN(C)CC5)nc4)ccc23)cc1", "tested on": "Schistosoma mansoni", "system": "adult worms", "conditions": "10 µM, 24 h", "scale": "direction not given", "measurement": "phenotypic severity score", "value": 0}
{"note": "For quick reference, copied from above:"}
{"Structure (SMILES)": "CC(C)(Oc1ccc(CCNC(=O)c2ccc(Cl)cc2)cc1)C(=O)O", "tested on": "Nedd8-cullin1 interaction", "test": "neddylation, AlphaScreen", "conditions": "100 µM", "measurement": "inhibition", "value": "77.3%"}
{"Structure (SMILES)": "COc1ccc(Nc2cnnc3ccc(-c4cnc(N5CCN(C)CC5)nc4)cc23)cc1Cl", "tested on": "Schistosoma mansoni", "system": "adult worms", "conditions": "10 µM, 48 h", "scale": "direction not given", "measurement": "phenotypic severity score", "value": 0}
{"Structure (SMILES)": "CC(C)C[C@H](NC(=O)C[C@H](O)[C@H](CC(C)C)NC(=O)[C@H](Cc1c[nH]cn1)NC(=O)CNC(=O)[C@@H](NC(=O)[C@H](C)NC(=O)[C@H](Cc1c[nH]c2ccccc12)NC(=O)[C@H](CCC(N)=O)NC(=O)[C@@H](Cc1ccccc1)NC(=O)COCCOCCNC(=O)CCC(C(=O)O)N1CCN(CC(=O)O)CCN(CC(=O)O)CCN(CC(=O)O)CC1)C(C)C)C(N)=O (stereo partly shown) [lutetium-177 labelled]", "system": "female BALB/c nu/nu mice, stomach", "conditions": "intravenous, 50 pmol, 1 h", "measurement": "tissue uptake", "value": "2 ± 1 %ID/g"}
{"Structure (SMILES)": "CC(C)NCC(O)c1ccc(O)c(O)c1 (stereo not shown)", "system": "ventricular cardiomyocytes, C57BL/6 mouse", "conditions": "dose not given, 0.3 s", "measurement": "sarcomere length", "value": "1.72 µm"}
{"Structure (SMILES)": "COc1ccc(Nc2cnnc3ccc(-c4cnc(N5CCN(C)CC5)nc4)cc23)cc1", "tested on": "Schistosoma mansoni", "system": "adult worms", "conditions": "10 µM, 24 h", "scale": "direction not given", "measurement": "phenotypic severity score", "value": 1}
{"Structure (SMILES)": "COc1ccc(-c2coc3cc(O)ccc3c2=O)cc1O", "tested on": "ESR2", "test": "array formation, agonist", "system": "GFP-ERβ PRL-HeLa", "conditions": "1 h", "measurement": "EC50", "value": "1.75 µM"}
